Measurements collected from several papers.
Protocols differ between the studies behind these lines. ± gives the spread as reported.
UniProt P11388, sequence (whole entry, looked up): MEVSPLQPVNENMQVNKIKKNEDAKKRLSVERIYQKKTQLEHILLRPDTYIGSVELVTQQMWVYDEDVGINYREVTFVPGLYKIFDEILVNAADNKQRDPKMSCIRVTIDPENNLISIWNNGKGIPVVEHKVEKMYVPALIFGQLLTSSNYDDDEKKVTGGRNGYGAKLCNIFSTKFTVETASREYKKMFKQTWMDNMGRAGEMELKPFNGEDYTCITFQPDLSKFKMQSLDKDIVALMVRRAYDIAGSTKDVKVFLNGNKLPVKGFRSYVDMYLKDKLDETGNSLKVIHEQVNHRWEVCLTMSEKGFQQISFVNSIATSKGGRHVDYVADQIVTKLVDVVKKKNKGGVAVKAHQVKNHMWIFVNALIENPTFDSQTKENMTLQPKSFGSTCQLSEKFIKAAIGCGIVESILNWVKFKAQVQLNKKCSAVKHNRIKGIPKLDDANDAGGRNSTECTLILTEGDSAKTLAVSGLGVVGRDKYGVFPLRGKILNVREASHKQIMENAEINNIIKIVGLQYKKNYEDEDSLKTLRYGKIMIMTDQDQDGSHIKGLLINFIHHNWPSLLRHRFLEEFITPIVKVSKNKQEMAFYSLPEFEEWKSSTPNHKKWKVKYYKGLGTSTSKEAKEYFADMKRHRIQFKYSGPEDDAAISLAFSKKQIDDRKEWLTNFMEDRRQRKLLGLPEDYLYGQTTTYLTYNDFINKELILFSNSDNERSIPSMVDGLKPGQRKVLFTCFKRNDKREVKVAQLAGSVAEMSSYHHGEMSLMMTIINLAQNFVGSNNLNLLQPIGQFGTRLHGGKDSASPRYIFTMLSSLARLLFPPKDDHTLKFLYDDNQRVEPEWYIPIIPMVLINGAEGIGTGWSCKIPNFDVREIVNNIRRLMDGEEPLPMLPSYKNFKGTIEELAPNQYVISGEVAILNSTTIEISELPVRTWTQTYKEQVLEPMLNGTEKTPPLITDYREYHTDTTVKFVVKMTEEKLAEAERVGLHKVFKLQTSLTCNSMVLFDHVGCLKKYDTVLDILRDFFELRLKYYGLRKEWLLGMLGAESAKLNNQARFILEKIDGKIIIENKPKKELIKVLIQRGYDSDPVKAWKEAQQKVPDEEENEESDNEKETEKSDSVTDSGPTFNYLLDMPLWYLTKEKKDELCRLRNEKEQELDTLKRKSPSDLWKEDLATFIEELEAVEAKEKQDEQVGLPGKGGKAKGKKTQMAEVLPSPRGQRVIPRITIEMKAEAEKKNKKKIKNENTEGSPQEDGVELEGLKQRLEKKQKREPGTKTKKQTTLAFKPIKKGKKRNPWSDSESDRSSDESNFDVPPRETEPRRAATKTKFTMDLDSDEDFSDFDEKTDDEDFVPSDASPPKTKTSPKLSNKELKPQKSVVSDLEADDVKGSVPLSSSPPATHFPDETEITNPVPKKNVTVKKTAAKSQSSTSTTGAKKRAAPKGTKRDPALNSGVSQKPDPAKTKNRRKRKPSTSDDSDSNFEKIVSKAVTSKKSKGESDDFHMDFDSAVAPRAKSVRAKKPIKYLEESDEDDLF

Structure (SMILES) = COC(=O)Nc1c(N)nc(-c2nn(Cc3ccccc3F)c3ncc(F)cc23)nc1N; system = healthy white men; setting = dose not given, day 14, 336 h, LS mean difference, added: sildenafil 50 mg; how to read = relative to: placebo; measurement = seated HR maximum increase; result = 0.42 bpm
Structure (SMILES) = CC(C)C[C@H](NC(=O)OCc1ccccc1)C(=O)N[C@H](C=O)C[C@@H]1CCCNC1=O; target or system = SARS-CoV-2; test = viral replication, RT-qPCR viral load; system = Caco-2; setting = 72 h; measurement = EC90; result = 100 ± 20 nM
Structure (SMILES) = Fc1ccccc1Cc1nc(-c2nc(C(F)(F)F)n[nH]2)cn2ccnc12; system = healthy volunteers; setting = 30 mg, single ascending dose; how to read = relative to: placebo; measurement = smooth pursuit eye movements; result = -0.33%
Structure (SMILES) = N#CCC1CCN(c2nc(Nc3ccc(N4CCC(O)CC4)cc3)c3c(=O)[nH]ncc3n2)CC1; test = vs placebo, Olink multiplex; system = human, serum; setting = 20 mg, day 15, unit not given; how to read = relative to: placebo; measurement = GIF level difference; result = 1.1
Structure (SMILES) = OC[C@H]1O[C@@H](O[C@@H]2[C@@H](O)[C@H](O[C@@H]3[C@@H](O)[C@H](O[C@@H]4[C@@H](O)[C@H](O[C@@H]5[C@@H](O)[C@H](O[C@H]6[C@H](O)[C@@H](CO)OC(O)[C@@H]6O)O[C@H](CO)[C@H]5O)O[C@H](CO)[C@H]4O)O[C@H](CO)[C@H]3O)O[C@H](CO)[C@H]2O)[C@H](O)[C@@H](O)[C@@H]1O (stereo partly drawn); target or system = Bacteroides thetaiotaomicron; test = binding, ITC; setting = pH 7.0, 25 °C, middle domain; measurement = -TΔS; result = 14.9 kcal/mol
Structure (SMILES) = COC(=O)Nc1c(N)nc(-c2nn(Cc3ccccc3F)c3ncc(F)cc23)nc1N; system = healthy male humans, plasma; setting = oral, 10 mg once daily, phase I DDI study, added: sildenafil 100 mg; measurement = Cmax at steady state; result = 499 ng/mL
Structure (SMILES) = OC[C@H]1O[C@@H](O[C@@H]2[C@@H](O)[C@H](O[C@@H]3[C@@H](O)[C@H](O[C@@H]4[C@@H](O)[C@H](O[C@H]5[C@H](O)[C@@H](CO)OC(O)[C@@H]5O)O[C@H](CO)[C@H]4O)O[C@H](CO)[C@H]3O)O[C@H](CO)[C@H]2O)[C@H](O)[C@@H](O)[C@@H]1O (stereo partly drawn); target or system = Bacteroides thetaiotaomicron; test = binding, ITC; setting = pH 7.0, 25 °C, middle domain; measurement = ΔG; result = -26.1 kcal/mol
Structure (SMILES) = CC1COc2ccccc2N1C(=O)C(Cl)Cl (stereo not drawn); target or system = carboxylesterase; system = female rhesus monkey liver microsomes; setting = 5 µM, 30 min, pH 7.4, without NADPH; measurement = remaining compound; result = 68 ± 1%
Structure (SMILES) = COc1cc([C@@H]2c3cc4c(cc3[C@@H](O[C@@H]3O[C@@H]5CO[C@@H](C)O[C@H]5[C@H](O)[C@H]3O)[C@H]3COC(=O)[C@H]23)OCO4)cc(OC)c1O; target or system = TOP2A (Homo sapiens, UniProt P11388); test = DNA cleavage; setting = 50 µM; measurement = linear DNA; result = 13.7%
Structure (SMILES) = Clc1nc(NCc2ccco2)c2[nH]cnc2n1; target or system = B-lymphoblastoid cells; test = RT-PCR, item: GLA poison exon inclusion; measurement = concentration for poison exon suppression; result = ≥ 10 µM
Structure (SMILES) = CO/N=C(\C(=O)N[C@@H]1C(=O)N2C(C(=O)O)=C(COC(C)=O)CS[C@H]12)c1csc(N)n1; target or system = Salmonella enterica serovar Choleraesuis; test = broth microdilution; system = clinical isolate RKI-No 532/14-1; measurement = MIC; result = > 16 µg/mL
Structure (SMILES) = Cn1nc(S(=O)(=O)N2CCn3nccc3C2)cc1C(=O)NCc1cccnc1N1CCCC1; target or system = Replicase polyprotein 1ab, nsp14 (rep, Severe acute respiratory syndrome coronavirus 2, UniProt P0DTD1); test = inhibitor; measurement = IC50; result = > 6250 nM

A few entries again:
Structure (SMILES) = COC(=O)Nc1c(N)nc(-c2nn(Cc3ccccc3F)c3ncc(F)cc23)nc1N; system = healthy white men; setting = dose not given, day 14, 336 h, LS mean difference, added: sildenafil 50 mg; how to read = relative to: placebo; measurement = seated HR maximum increase; result = 0.42 bpm
